{"data": "Published values of several laboratories", "cell line": "MCF7", "note": "± marks the error that the study gave."}
{"Structure (SMILES)": "CN1CCC2(CC1)C/C(=N\\N=C\\c1ccc(N(C)C)cc1)c1ccccc1O2", "effect on": "cell growth or viability", "method": "MTT", "time": "48 h", "IC50": "26.4 µM"}
{"Structure (SMILES)": "Cc1ccc(NC(=O)NNC(=O)CSc2nc3ccccc3c(=O)n2-c2ccc(Cl)cc2)cc1", "effect on": "cell growth or viability", "method": "MTT", "IC50": "59.5 µM"}
{"Structure (SMILES)": "[O-][n+]1nc(NCCCCCNc2n[n+]([O-])c3ccccc3[n+]2[O-])nc2ccccc21", "effect on": "cytotoxicity", "method": "MTT", "matrix": "10% FBS medium", "time": "6 h + 18 h", "setting": "hypoxia 3% O2", "IC50": "> 30 µM"}
{"Structure (SMILES)": "N#CC(=Cc1ccc(Cl)cc1)C(=O)Nc1nnc(NC(=O)c2ccccc2)s1", "effect on": "cell growth or viability", "method": "MTT", "time": "48 h", "IC50": "17.7 µM"}
{"Structure (SMILES)": "O=C(c1ccc2ccccc2c1)c1cn(-c2ccccc2)nc1C1=Nn2c(S)nnc2SC1", "effect on": "cell growth or viability", "method": "MTT", "time": "48 h", "IC50": "2.74 µM"}
{"Structure (SMILES)": "[O-][n+]1nc(NCCCCCCCCNc2n[n+]([O-])c3ccccc3[n+]2[O-])nc2ccccc21", "effect on": "cytotoxicity", "method": "MTT", "matrix": "10% FBS medium", "time": "6 h + 18 h", "setting": "hypoxia 3% O2", "IC50": "> 30 µM"}
{"Structure (SMILES)": "C=CCc1ccc(OCc2nnc(SCC(=O)N3CCCCC3)o2)c(OC)c1", "effect on": "cell growth or viability", "method": "MTT", "time": "72 h", "IC50": "173 µM"}
{"Structure (SMILES)": "Nc1n[n+]([O-])c2ccccc2[n+]1[O-]", "effect on": "cytotoxicity", "method": "MTT", "matrix": "10% FBS medium", "time": "6 h + 18 h", "setting": "hypoxia 3% O2", "IC50": "52 µM"}
{"Structure (SMILES)": "Cc1ccc(-n2c(SCC(=O)NNC(=O)Nc3ccccc3)nc3ccccc3c2=O)cc1", "effect on": "cell growth or viability", "method": "MTT", "IC50": "5.86 µM"}
{"Structure (SMILES)": "CCOC(=O)c1nc2c(c(-c3ccc(Cl)cc3)c(C#N)c(=O)n2C2CCCCC2)c(=O)[nH]1", "effect on": "cell growth or viability", "method": "MTT", "IC50": "29.6 µM"}
{"Structure (SMILES)": "CC/C(=C(\\c1ccccc1)c1ccc(OCCN(C)C(=O)CCCCCCOc2ccc3[nH]cc(CCNC(C)=O)c3c2)cc1)c1ccccc1", "effect on": "cell survival", "method": "MTT", "time": "day 9", "setting": "dosed days 2, 4, 7", "IC50": "55 µM"}
{"Structure (SMILES)": "CNC(=O)c1cc(Oc2ccc(NC(=O)Nc3ccc(Cl)c(C(F)(F)F)c3)cc2)ccn1", "effect on": "cytotoxicity", "method": "MTT", "time": "24 h", "IC50": "7.29 ± 0.3 µM"}
{"Structure (SMILES)": "Cc1cc(-c2ccccc2)n(-c2nnc(NC(=O)c3ccccc3)s2)c(=O)c1C#N", "effect on": "cell growth or viability", "method": "MTT", "time": "48 h", "IC50": "72.4 µM"}
{"Structure (SMILES)": "NCCCCCCCNc1n[n+]([O-])c2ccccc2[n+]1[O-]", "effect on": "cytotoxicity", "method": "MTT", "matrix": "10% FBS medium", "time": "6 h + 18 h", "setting": "hypoxia 3% O2", "IC50": "88.6 ± 0.1 µM"}
{"Structure (SMILES)": "c1cnc2c(c1)Nc1ncccc1S2", "effect on": "cell growth or viability", "method": "WST-1", "time": "72 h", "IC50": "< 5 µg/mL"}
{"Structure (SMILES)": "Cc1nc2ccccc2nc1SCC(=O)Nc1ccc(C(=O)NNC(=O)c2ccccc2O)cc1", "effect on": "cell growth or viability", "method": "MTT", "IC50": "35.8 µM"}
{"Structure (SMILES)": "c1ccc(P(=NCc2ccccn2)(c2ccccc2)c2ccccc2)cc1", "effect on": "cell growth or viability", "method": "MTT", "time": "74 h", "IC50": "> 100 µM"}
{"Structure (SMILES)": "Cc1ccc(-n2c(SCC(=O)NNC(=O)Nc3ccc(C(F)(F)F)cc3Cl)nc3ccccc3c2=O)cc1", "effect on": "cell growth or viability", "method": "MTT", "IC50": "38.4 µM"}
{"Structure (SMILES)": "Cc1nc2ccccc2nc1SCC(=O)Nc1ccc(C(=O)Nc2ccc([N+](=O)[O-])cc2O)cc1", "effect on": "cell growth or viability", "method": "MTT", "IC50": "61.5 µM"}
{"Structure (SMILES)": "N#CCC(=O)Nc1nnc(NC(=O)c2ccccc2)s1", "effect on": "cell growth or viability", "method": "MTT", "time": "48 h", "IC50": "23.8 µM"}
{"Structure (SMILES)": "[O-][n+]1nc(NCCCCNc2n[n+]([O-])c3ccccc3[n+]2[O-])nc2ccccc21", "effect on": "cytotoxicity", "method": "MTT", "matrix": "10% FBS medium", "time": "6 h + 18 h", "setting": "hypoxia 3% O2", "IC50": "> 30 µM"}
{"Structure (SMILES)": "CSC(SC)=C(C#N)C(=O)Nc1nnc(NC(=O)c2ccccc2)s1", "effect on": "cell growth or viability", "method": "MTT", "time": "48 h", "IC50": "15.1 µM"}
{"Structure (SMILES)": "C=CCc1ccc(O)c(-c2ccc(O)c(CC=C)c2)c1", "effect on": "cell proliferation", "method": "MTS", "time": "72 h", "with": "temozolomide 250 µM", "IC50": "10 µM"}
{"Structure (SMILES)": "COc1ccc(C=NNC(=O)C(C#N)=C2Sc3nc4ccc(S(=O)(=O)N5CCCC5)cc4nc3S2)cc1", "effect on": "cell growth", "time": "24 h", "IC50": "11.3 ± 0.9 µM"}
{"Structure (SMILES)": "COc1ccc(-n2c(SCC(=O)NNC(=O)Nc3ccc(F)cc3)nc3ccccc3c2=O)cc1", "effect on": "cell growth or viability", "method": "MTT", "IC50": "10.2 µM"}
{"Structure (SMILES)": "COc1cc(/C=C/C(=O)CC(=O)/C=C/c2ccc(O)c(OC)c2)ccc1O", "effect on": "cell growth or viability", "method": "MTT", "time": "48 h", "IC50": "24.8 µg/mL"}
{"Structure (SMILES)": "N#CC(C(=O)NN=C1C(=O)Nc2ccccc21)=C1Sc2nc3ccc(S(=O)(=O)N4CCCC4)cc3nc2S1", "effect on": "cell growth", "time": "24 h", "IC50": "24.3 ± 1.8 µM"}
{"Structure (SMILES)": "NCCCn1c2c(c3ccc(N)cc3c1=O)C(=O)c1ccccc1-2", "effect on": "cell growth or viability", "method": "SRB", "time": "48 h", "IC50": "0.85 µM"}
{"Structure (SMILES)": "Clc1ccccc1SSc1ccccc1Cl", "effect on": "cell growth or viability", "method": "SRB", "IC50": "> 10 µM"}
{"Structure (SMILES)": "COc1ccc(-n2c(SCC(=O)NNC(=O)Nc3c(C)cccc3C)nc3ccccc3c2=O)cc1", "effect on": "cell growth or viability", "method": "MTT", "IC50": "78.3 µM"}
{"Structure (SMILES)": "Fc1ccccc1SSc1ccccc1F", "effect on": "cell growth or viability", "method": "SRB", "IC50": "> 10 µM"}
{"Structure (SMILES)": "CC1(C)CC[C@]2(C(=O)O)CC[C@]3(C)C(=CC[C@@H]4[C@@]5(C)CC[C@H](O)C(C)(C)[C@@H]5CC[C@]43C)[C@@H]2C1", "effect on": "cell growth or viability", "method": "resazurin", "time": "96 h", "IC50": "11 µg/mL"}
{"Structure (SMILES)": "CCCCCCCCCCCCCC(=O)OC[C@H](COP(=O)([O-])OCC[N+](C)(C)C)OC(=O)CCCCCCCCCCCCC", "effect on": "cell viability", "method": "MTT", "time": "72 h", "IC50": "> 250 µM"}
{"Structure (SMILES)": "N#CC(C(=O)Nc1nnc(NC(=O)c2ccccc2)s1)=C1Nc2ccccc2O1", "time": "48 h", "IC50": "7.7 ± 0.5 µM"}
{"Structure (SMILES)": "C=CCc1ccc(OCc2nn(CN3CCCCC3)c(=S)o2)c(OC)c1", "effect on": "cell growth or viability", "method": "MTT", "time": "72 h", "IC50": "33.2 µM"}
{"Structure (SMILES)": "[O-][n+]1nc(NCCCNc2n[n+]([O-])c3ccccc3[n+]2[O-])nc2ccccc21", "effect on": "cytotoxicity", "method": "MTT", "matrix": "10% FBS medium", "time": "6 h + 18 h", "setting": "hypoxia 3% O2", "IC50": "24 ± 3.3 µM"}
{"Structure (SMILES)": "COc1ccc(NC(=O)NNC(=O)CSc2nc3ccccc3c(=O)n2-c2ccc(OC)cc2)cc1", "effect on": "cell growth or viability", "method": "MTT", "IC50": "93.7 µM"}
{"Structure (SMILES)": "CCOC(=O)Cn1c(-c2ccc(Cl)cc2)cc(-c2ccc(O)c(OC)c2)c(C#N)c1=O", "effect on": "cell growth or viability", "method": "MTT", "IC50": "4.15 µM"}
{"Structure (SMILES)": "O=c1[nH]cc(F)c(=O)[nH]1", "effect on": "cell growth or viability", "time": "24 h", "IC50": "78.6 µM"}
{"Structure (SMILES)": "N#Cc1c(-c2ccc(Cl)cc2)c2c(=O)[nH]c(-c3ccco3)nc2n(C2CCCCC2)c1=O", "effect on": "cell growth or viability", "method": "MTT", "IC50": "11.2 µM"}
{"Structure (SMILES)": "O=C(c1ccc2ccccc2c1)c1cn(-c2ccccc2)nc1C1=Nn2c(nnc2SCc2ccccc2CSc2nnc3n2N=C(c2nn(-c4ccccc4)cc2C(=O)c2ccc4ccccc4c2)CS3)SC1", "effect on": "cell growth or viability", "method": "MTT", "time": "48 h", "IC50": "38.2 µM"}
{"Structure (SMILES)": "O=S(=O)(Sc1ccccc1Br)c1ccccc1Br", "effect on": "cell growth", "method": "sulforhodamine B", "IC50": "> 10 µM"}
{"Structure (SMILES)": "COc1ccc(C=C(C#N)C(=O)Nc2nnc(NC(=O)c3ccccc3)s2)cc1", "effect on": "cell growth or viability", "method": "MTT", "time": "48 h", "IC50": "< 10 µM"}
{"Structure (SMILES)": "Clc1cccc(SSc2cccc(Cl)c2)c1", "effect on": "cell growth or viability", "method": "SRB", "IC50": "> 10 µM"}
{"Structure (SMILES)": "NCCCCCCCCNc1n[n+]([O-])c2ccccc2[n+]1[O-]", "effect on": "cytotoxicity", "method": "MTT", "time": "24 h", "setting": "normoxia", "IC50": "214 ± 26 µM"}
{"Structure (SMILES)": "Cn1nnc2c(C(N)=O)ncn2c1=O", "effect on": "cell proliferation", "method": "MTS", "time": "24 h", "with": "10 µM HNL", "IC50": "200 µM"}
{"Structure (SMILES)": "Clc1ccc(SSc2ccc(Cl)cc2)cc1", "effect on": "cell growth or viability", "method": "SRB", "IC50": "> 10 µM"}
{"Structure (SMILES)": "CCOC(=O)C(C(C)=O)=C1Sc2nc3ccc(S(=O)(=O)N4CCCC4)cc3nc2S1", "effect on": "cell growth", "time": "24 h", "IC50": "≤ 8.78 µM"}
{"Structure (SMILES)": "COc1cc(-c2cc(-c3ccc(Cl)cc3)n(CN3CCCCC3)c(=O)c2C#N)ccc1O", "effect on": "cell growth or viability", "method": "MTT", "IC50": "25.4 µM"}
{"note": "Repeated from above:"}
{"Structure (SMILES)": "Nc1n[n+]([O-])c2ccccc2[n+]1[O-]", "effect on": "cytotoxicity", "method": "MTT", "matrix": "10% FBS medium", "time": "6 h + 18 h", "setting": "hypoxia 3% O2", "IC50": "52 µM"}
{"Structure (SMILES)": "Cc1ccc(-n2c(SCC(=O)NNC(=O)Nc3ccccc3)nc3ccccc3c2=O)cc1", "effect on": "cell growth or viability", "method": "MTT", "IC50": "5.86 µM"}
{"Structure (SMILES)": "CCOC(=O)c1nc2c(c(-c3ccc(Cl)cc3)c(C#N)c(=O)n2C2CCCCC2)c(=O)[nH]1", "effect on": "cell growth or viability", "method": "MTT", "IC50": "29.6 µM"}
